{"data": "Results pooled from the literature", "note": "Numbered parts are unrelated; each lists some results of a single study."}
{"data": "Study 1", "target": "Interferon regulatory factor 5, full length, phosphomimetic (IRF5, Homo sapiens, UniProt Q13568-2, residues 1-514, K96S/S451D/S453D/S456D/S462D)", "method": "protein-binding microarray", "form": "double-stranded DNA, one strand shown", "matrix": "in vitro", "tested at": "250 nM", "notes": "60-bp whole probe", "added": "salmon DNA 0.4 mg/ml", "relative to": "random background probes", "direction": "higher = stronger binding", "shared flanks, not repeated": "GCCTAGCACT … GTCTTGATTCGCTTGACGCTGCTG"}
{"Oligonucleotide": "CATGCTTGGGTCTGGGACTGTGCTAG", "log fluorescence [z-score]": -0.544}
{"Oligonucleotide": "TAGAAATCAGTATCGATTAGTGCTAG", "log fluorescence [z-score]": 7.88}
{"Oligonucleotide": "TAGGTTTCGGGTTGCGGTTAGTGCTA", "log fluorescence [z-score]": 8.78}
{"Oligonucleotide": "TAGGTCTCCTACTGCTGTAGTGCTAG", "log fluorescence [z-score]": -0.682}
{"Oligonucleotide": "TAGATTTCGGTATCGATTAGTGCTAG", "log fluorescence [z-score]": 10.2}
{"Oligonucleotide": "CATGTTTCTAATATTCTACTGTGCTA", "log fluorescence [z-score]": 1.4}
{"data": "Study 2", "target": "Histone acetyltransferase KAT6A, both winged helices, GST fusion (KAT6A, Homo sapiens, UniProt Q92794, residues 1-181)", "method": "protein binding microarray", "form": "double-stranded DNA, one strand shown", "matrix": "in vitro", "tested at": "not given", "notes": "8-mer, flanks averaged, mean of 2 arrays, mostly near background", "relative to": "not given", "direction": "higher = stronger binding", "Residues (chain)": "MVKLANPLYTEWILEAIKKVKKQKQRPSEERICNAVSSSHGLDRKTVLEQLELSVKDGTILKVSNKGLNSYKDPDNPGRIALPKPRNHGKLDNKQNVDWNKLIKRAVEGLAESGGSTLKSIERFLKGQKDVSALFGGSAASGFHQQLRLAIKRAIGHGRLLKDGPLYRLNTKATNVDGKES"}
{"Oligonucleotide": "ACAAAGAG", "E-score": -0.208}
{"Oligonucleotide": "TACGTTAA", "E-score": 0.0941}
{"Oligonucleotide": "GAAATCAA", "E-score": 0.071}
{"Oligonucleotide": "CATCGGTC", "E-score": 0.0414}
{"Oligonucleotide": "AGAAGCGG", "E-score": 0.157}
{"Oligonucleotide": "AAATATTA", "E-score": -0.0121}
{"Oligonucleotide": "AAAGTGTT", "E-score": -0.0963}
{"Oligonucleotide": "CCACCGCC", "E-score": 0.134}
{"Oligonucleotide": "CCTGGCAG", "E-score": -0.113}
{"data": "Study 3", "target": "Protein max, full length (MAX, Homo sapiens, UniProt P61244-2, residues 1-151)", "method": "protein-binding microarray", "form": "double-stranded DNA, one strand shown", "matrix": "in vitro", "tested at": "not given", "notes": "k-mer, scored over probes, only values ≥0.25", "direction": "higher = stronger binding"}
{"Oligonucleotide": "CACATGGA", "E-score": 0.476}
{"Oligonucleotide": "CCCGTGCA", "E-score": 0.335}
{"Oligonucleotide": "ACGCTGGA", "E-score": 0.27}
{"Oligonucleotide": "AAATGTGC", "E-score": 0.327}
{"Oligonucleotide": "ACGCGTAT", "E-score": 0.283}
{"Oligonucleotide": "GTGGAGCA", "E-score": 0.251}
{"Oligonucleotide": "CATGTACA", "E-score": 0.347}
{"Oligonucleotide": "CACGCATA", "E-score": 0.288}
{"data": "Further values, each from its own experiment"}
{"Substance": "PhoQ, residues 284 288 289 292 302 303 SSYNSA", "target": "PhoP, residues 12 14 15 18 19 SYFRT (Escherichia coli, UniProt P23836)", "test": "Sort-seq, item: YFP reporter", "system": "E. coli", "setting": "PhoQ-PhoP variant library, added: 10 µM Mg2+", "scale": "relative to: high Mg2+ state, higher = stronger signaling", "measurement": "fold induction", "result": 1.09}
